Published values from different studies.
Compare with care: the assays were run in different laboratories. ± gives the spread as reported. In brackets after ≈: the same amount, converted by molar mass.
Organism: Staphylococcus aureus

`C=Cc1cc(OC)c2c(c1)c(=O)oc1c2cc(OC)c2c(O)ccc([C@@H]3O[C@H](C)[C@H](O)[C@@](C)(O)[C@H]3O)c21` — result for “bacterial burden decrease”: about 4.8 log10 per wound (MRSA USA300, mouse epicutaneous infection; 3 mg/kg, day 6).
`CC[C@@](C)(NC)C(=O)NC(C)(C)C(=O)NC(C)(C)C(=O)NC(C)(C)C(=O)NCC(=O)NC(C)(C)C(=O)N1CCC[C@@H]1C(=O)N[C@@H](Cc1c[nH]c2ccccc12)C(=O)NC(C)(C)C(=O)N1C[C@H](O)C[C@@H]1C(=O)N[C@@H](C)C(=O)NC(C)(C)C(=O)NCCCC(=O)N[C@@H](CC(C)C)C(=O)N[C@](C)(CC)C(=O)NC(C)(C)C(=O)N[C@](C)(CC)C(=O)N[C@H](CO)Cc1ccccc1`: “extracellular ATP level” “increased” (ATCC 29213; 1, 5, 10 µg/mL, 1 h, 37 °C).
For `CCCCc1ccc(-c2nc(C)c(C(C)=NNC(=N)N)s2)cc1`, the MBC was 1.3 µg/mL (≈ 3.95 µM) (VRS4 VRSA).
`CC(CCC(=O)[O-])C1CCC2C3CCC4CC(O)CCC4(C)C3CC(O)C12C.C[N+](C)(C)CC(O)CC(=O)O` (stereo not shown) — result for “inhibition zone diameter”: 10.8 ± 2.5 mm (TISTR 746; 1 mg per disc, 18 to 24 h, 37 °C, 6 mm disc).
`CC[C@H](C)[C@H](NC(=O)[C@H](CCCN)NC(=O)[C@H](CC(N)=O)NC(=O)[C@H](Cc1c[nH]c2ccccc12)NC(=O)[C@H](Cc1ccccc1)NC(=O)[C@H](CCCN)NC(=O)[C@H](CCCCNC(=N)N)NC(=O)[C@H](CC(C)C)NC(=O)[C@H](Cc1c[nH]c2ccccc12)NC(=O)[C@H](CCCN)NC(=O)[C@H](CCCCNC(=N)N)NC(=O)[C@H](CC(C)C)NC(=O)CNC(C)=O)C(=O)N[C@@H](CCCN)C(=O)N[C@@H](CCCCNC(=N)N)C(N)=O` — result for “biofilm cells killed”: over 50% (1/2 x MIC, established biofilm).
`CC[C@H](C)[C@H](NC(=O)CNC(=O)CNC(=O)[C@H](CO)NC(=O)[C@@H](NC(=O)[C@H](CCCCN)NC(=O)[C@H](CO)NC(=O)[C@@H](N)CC(C)C)[C@@H](C)CC)C(=O)NCC(=O)N1CCC[C@H]1C(=O)N[C@@H](CC(C)C)C(=O)N[C@H](C(=O)N[C@H](C(=O)N1CCC[C@H]1C(=O)N[C@H](C(N)=O)C(C)C)[C@@H](C)CC)C(C)C`: “log reduction in CFU” 2 log (ATCC 25923; MIC, 2 h).
For `CC(C)C[C@H](NC(=O)[C@H](C)NC(=O)[C@@H](N)C(C)C)C(=O)N[C@@H](CC(=O)O)C(=O)N[C@@H](CC(C)C)C(=O)N[C@@H](CC(C)C)C(=O)N[C@@H](CCC(N)=O)C(=O)N[C@@H](Cc1ccc(O)cc1)C(=O)O`, the growth inhibition was 45.7% (OD600; ATCC 25923; concentration not given, 18 to 22 h, 37 °C, unheated).
Under AgrC activity, `CC(=O)N[C@H]1CNC(=O)[C@H](Cc2ccccc2)NC(=O)[C@H](Cc2ccccc2)NC(=O)COCCOCCNC1=O` is recorded as “inactive” (reporter gene; AH1747; 10 µM; relative to: DMSO).
`CC(C)c1ccc2c(c1)CCC1C(C)(CN(CC(O)C[N+](C)(C)C)CC(O)C[N+](C)(C)C)CCCC21C` (stereo not shown) gave a selectivity index of over 3.2 (MRSA ATCC BAA-44, mouse red blood cells; relative to: HC50 over MIC).
`Cc1cc(=O)nc(NC(=O)NCCCCCCNC(=O)NCCCCCCNC(=O)OCCOCCOCCOCCOCCOCCOCC(=O)N[C@@H](CC(C)C)C(=O)N[C@@H](CCCCN)C(=O)N[C@@H](CC(C)C)C(=O)N[C@@H](CC(C)C)C(=O)N[C@@H](CCCCN)C(=O)N[C@@H](CCCCN)C(=O)N[C@@H](CC(C)C)C(=O)N[C@@H](CC(C)C)C(=O)N[C@@H](CCCCN)C(=O)N[C@@H](CCCCN)C(=O)N[C@@H](CC(C)C)C(=O)N[C@@H](CC(C)C)C(=O)N[C@@H](CCCCN)C(=O)N[C@@H](CC(C)C)C(=O)N[C@@H](CC(C)C)C(N)=O)[nH]1` has an LC99.9 of 7.5 µM (MRSA AMC 201, RPMI medium; 24 h, 37 °C).

Repeated from above:
`CC(CCC(=O)[O-])C1CCC2C3CCC4CC(O)CCC4(C)C3CC(O)C12C.C[N+](C)(C)CC(O)CC(=O)O` (stereo not shown) — result for “inhibition zone diameter”: 10.8 ± 2.5 mm (TISTR 746; 1 mg per disc, 18 to 24 h, 37 °C, 6 mm disc).
